Experimental data collected from several papers.
A part holds a random share of what one study measured. Changes are numbered by the printed parent chain.

Set 1
Target: Histone acetyltransferase KAT6A, winged helix 1, GST fusion (KAT6A, Homo sapiens, UniProt Q92794, residues 1-85)
Method: protein binding microarray
Molecule type: double-stranded DNA, one strand shown
Medium: in vitro
Tested at: not given
Setting: 8-mer, flanks averaged, mean of 2 arrays, mostly near background
Relative to: not given
Direction: higher = stronger binding
Residues (chain): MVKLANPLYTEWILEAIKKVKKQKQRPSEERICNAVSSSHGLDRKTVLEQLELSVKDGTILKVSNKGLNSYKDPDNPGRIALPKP
For `CTGAGAAA`, the E-score was -0.106.
With `ATCGAAGG` the E-score was 0.00637.
`AATCACGC` gave an E-score of 0.00649.
For `GCTGATCC`, the E-score was 0.0478.
The E-score of `AAATCCTA` is reported as -0.0988.
The E-score of `CCTGTATA` is reported as -0.0748.
`AGGGACCC` has an E-score of 0.0735.
`ATGAGCAC` has an E-score of -0.154.
For `AATGCGTG`, the E-score was 0.0362.
`ACCCTTAC` has an E-score of 0.0876.
For `ACCCCTTC`, the E-score was -0.0958.
For `CTGTATAA`, the E-score was -0.0665.
For `GTTGTGCA`, the E-score was -0.258.
For `CCGGGTGA`, the E-score was 0.262.
With `GGCTAGAC` the E-score was -0.0263.
For `ACCCACGC`, the E-score was 0.136.

Set 2
Target: CCNE2, cyclin fold, Cln2 fusion (human)
Method: yeast growth competition, sequencing
Medium: yeast
Setting: weak parent motif
Relative to: not given
Direction: higher = stronger binding
Starting sequence: SLBP docking peptide (human); ARYKRKLLINDFG
`G13N`: “normalised enrichment score” 0.98.
`D11I` — result for “normalised enrichment score”: 0.939.
Under “normalised enrichment score”, `G13F` is recorded as 0.893.
Under “normalised enrichment score”, `K6F` is recorded as -0.23.
`Y3R`: “normalised enrichment score” 0.68.
`Y3N`: “normalised enrichment score” 0.75.
For `D11L`, “normalised enrichment score” read 1.8.
`A1I`: “normalised enrichment score” 0.593.
`G13P`: “normalised enrichment score” 0.951.
`K6V` — result for “normalised enrichment score”: 0.707.
Under “normalised enrichment score”, `L7N` is recorded as 0.894.
For `L8S`, “normalised enrichment score” read 0.288.
Under “normalised enrichment score”, `R5A` is recorded as 0.382.
For `L7P`, “normalised enrichment score” read 0.429.
For `A1W`, “normalised enrichment score” read 1.16.
`K6D` — result for “normalised enrichment score”: 0.254.
`G13V` — result for “normalised enrichment score”: 1.45.
For `K6Q`, “normalised enrichment score” read 1.3.
For `R5G`, “normalised enrichment score” read 0.202.
`I9F`: “normalised enrichment score” 1.67.
For `R2N`, “normalised enrichment score” read 1.
For `K6R`, “normalised enrichment score” read 0.678.
Under “normalised enrichment score”, `N10G` is recorded as 2.03.
For `N10A`, “normalised enrichment score” read 0.636.
`K6L`: “normalised enrichment score” 1.09.

Set 3
Target: ABI1, truncated, D143A, DHFR fusion (Arabidopsis thaliana)
Method: DHFR PCA, deep sequencing
Medium: yeast
Setting: methotrexate growth selection, single substitutions
Together with: (+)-ABA 200 µM
Relative to: wild-type fitted maximum
Direction: higher = stronger binding
Starting sequence: PYL1, truncated, DHFR fusion (Arabidopsis thaliana); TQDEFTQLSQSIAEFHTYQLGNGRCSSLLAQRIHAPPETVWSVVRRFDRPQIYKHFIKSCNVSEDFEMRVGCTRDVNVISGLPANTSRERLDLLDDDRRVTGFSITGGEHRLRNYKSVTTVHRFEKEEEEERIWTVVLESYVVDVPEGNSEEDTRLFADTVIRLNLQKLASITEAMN
Under “relative binding score”, `Y141I` is recorded as 9.61%.
Under “relative binding score”, `P50Y` is recorded as 5.47%.
`T101R`: “relative binding score” -6.24%.
`F15Q`: “relative binding score” 70.5%.
`V161E` — result for “relative binding score”: -1.68%.
`G107E`: “relative binding score” 85.2%.
For `P83K`, “relative binding score” read 5.5%.
`N149P` — result for “relative binding score”: -0.583%.
`Q7G` — result for “relative binding score”: 102%.
For `V43R`, “relative binding score” read 48.9%.
`G102R`: “relative binding score” 60.8%.
`H34M`: “relative binding score” 104%.
`G21Y`: “relative binding score” 96.8%.
`R163W`: “relative binding score” 39.6%.
Under “relative binding score”, `H34S` is recorded as 98.2%.
`T160P` — result for “relative binding score”: -2.8%.
`F66H` — result for “relative binding score”: 93.1%.

Set 4
Target: RNA binding protein fox-1 homolog 2, RRM domain, GST-SBP tag (RBFOX2, Homo sapiens, UniProt O43251-10, residues 100-194)
Method: RNA Bind-n-Seq
Molecule type: RNA
Medium: in vitro
Tested at: 365 nM
Setting: natural RNA segment, single round, ends assumed
Relative to: no-protein control
Direction: higher = stronger binding
Residues (chain): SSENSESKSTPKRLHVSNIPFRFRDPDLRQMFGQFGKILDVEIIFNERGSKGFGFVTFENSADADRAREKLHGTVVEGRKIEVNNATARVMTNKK
`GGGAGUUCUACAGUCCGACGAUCGUCACAUCAGCAUCUUUCUGCUUUGAAAACUCUCACAGCUGUGGCUGCUUCACUUAGAUGCAGUGAGACACAUAGUUGGUGUUCCGAUUUUCACAUCCUUCCAUGUAUUUUGGAAUUCUCGGGUGCCAA` — result for “RBNS enrichment (R)”: 0.426.
For `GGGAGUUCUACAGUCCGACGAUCGAUGUGUUUCUUUCAUUUGCCAGAAUUCCUGAUACCAAAAGCCUCUCUCUCUGUUGAGUAACCUCUCAAGGACCAGAGUGGAGUCCAGAUUGUUAGGCUCAGAUCAAGGGUGGAAUUCUCGGGUGCCAA`, “RBNS enrichment (R)” read 0.414.
`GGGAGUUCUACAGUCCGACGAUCGCAGAGCAGGAGGGGGCCUGUGCUUCUCGGGGUCUGCACCCCAGGCACAGCGGUGUCACCCCGCAGGACCGCGGGCCUGCCCCAACCCCCAGCAUUCCCGGGUGGGCCCAUGGAAUUCUCGGGUGCCAA` — result for “RBNS enrichment (R)”: 0.696.
Under “RBNS enrichment (R)”, `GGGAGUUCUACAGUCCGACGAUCGCAGCCUCUUCUGUCCCUUUCAGUCAUUUGCUGUACUUCCCUGUGGCACGUUACCAUGGAAGCCGCUCCAGGGUGGGUCAGGGUGCAAGCUGCUGGUGAGGUUUGGAAGCUGGAAUUCUCGGGUGCCAA` is recorded as 0.224.
`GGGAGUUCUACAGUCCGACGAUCGUGGCAGGGGGUCACACCAGGCAGAACACCAUACACUCUCCAUCAGCUGUCUGUCUGGAUGUCACUGUCCUUCCCGGGGCUGUAUAGAGGGCCACAUGUGUUCACUAUUCUGGAAUUCUCGGGUGCCAA`: “RBNS enrichment (R)” 0.329.
For `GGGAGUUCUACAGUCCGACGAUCCCAAGUGGGAAGAAGGCACACCUAGCUUGGACCCACCCACAAGCUGCACUGUGUGACCUCUCUGUUGCCAGGGUGGGCAAGGGCUCAGCCACUCUGCCCACUAAAGUGCCUGGAAUUCUCGGGUGCCAA`, “RBNS enrichment (R)” read 0.285.
For `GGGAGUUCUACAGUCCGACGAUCACAAGGAGAAGAAGUUUCUUGUUGCUUUACAACAGUGUGUGCUAAGUGCUGGACUUGGCCAUGGGUAGUCUGCAGCUCAAUUUAUAGAACAGUCCAAAGAGACUUUGCAAUGGAAUUCUCGGGUGCCAA`, “RBNS enrichment (R)” read 0.717.
`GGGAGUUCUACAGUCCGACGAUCCGAGCACACUGCCCCCGGUUGCCUGCCUGGGCCCCAUGUGGAAGGCAGAUGCCUGCUCGCUCUGUCACCUGUGCCUCUCAGAACACCAGCAGUUAACCUUCAAGACAUUCUGGAAUUCUCGGGUGCCAA` — result for “RBNS enrichment (R)”: 0.278.
For `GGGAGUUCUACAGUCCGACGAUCCAGAAGCCUUGGCUAUUUAUAGCAGUUCUGACAAUAGUUUUAUAAGAACAUGAAGAGAACAGAAUCACUUGAAAAUGGAUGCCAGUCAUCUCUUGUUCCCACUACUGAAUUGGAAUUCUCGGGUGCCAA`, “RBNS enrichment (R)” read 0.431.
`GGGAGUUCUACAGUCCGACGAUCGUUUCUUCUGGAGAAUUGGAACAUGUGUGGCCCCAAGCUCAACAGAAACCAGUUGUUCCCAAUCUGCCGUUACCAUCAACGCACUGUUGCAUAUGCCAGCCACUGCGCUUUGGAAUUCUCGGGUGCCAA` — result for “RBNS enrichment (R)”: 0.624.
`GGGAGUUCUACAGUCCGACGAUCUACCACCAAUGAUGUGGGGAAGUGUGUUUCCCUAACAACUGGAGUUUUAGCCUAACCCUGAUCCCUUAACUGGUGCACCCCAGCCCCCGUGUUCGGGGCUCCCACCAUCUUGGAAUUCUCGGGUGCCAA` — result for “RBNS enrichment (R)”: 0.227.
Under “RBNS enrichment (R)”, `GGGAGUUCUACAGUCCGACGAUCAAGUAUACCUUGUUUAUCAGUCAGUGUUGCUUAGGUUCUCACUUCUCCAGUCAUUGUAAUGUCUACAAGGAAUGCACAAUGGAGUGCUCAGAUCACUAAAAGGAGCAUCAUGGAAUUCUCGGGUGCCAA` is recorded as 0.284.

Set 5
Target: DBP, bZIP domain (human)
Method: DHFR protein complementation
Medium: yeast
Setting: single substitutions, most at no-binding floor
Relative to: wild-type JUN-FOS pair
Direction: higher = stronger binding
Starting sequence: JUN, bZIP domain (human); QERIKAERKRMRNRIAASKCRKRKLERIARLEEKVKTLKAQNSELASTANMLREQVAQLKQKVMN; partner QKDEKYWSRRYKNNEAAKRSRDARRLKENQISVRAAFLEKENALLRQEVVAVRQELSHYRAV
`T37Q` has a binding fitness of -1.2 natural log.
For `E32R`, the binding fitness was -1.34 natural log.
For `L45E`, the binding fitness was -1.59 natural log.
With `L31Q` the binding fitness was -1.52 natural log.
`V35P` gave a binding fitness of -1.36 natural log.
With `K36G` the binding fitness was -1.38 natural log.
For `A49G`, the binding fitness was -1.47 natural log.
`R30H` gave a binding fitness of -1.51 natural log.
`L38E` gave a binding fitness of -1.25 natural log.
`L31H` gave a binding fitness of -1.4 natural log.
`Q41A` gave a binding fitness of -1.21 natural log.
With `R53H` the binding fitness was -1.49 natural log.
The binding fitness of `L52W` is reported as -1.56 natural log.
`Q55N` has a binding fitness of -1.53 natural log.
`T48I` has a binding fitness of -1.44 natural log.
`A57R` gave a binding fitness of -1.49 natural log.
`I28K` gave a binding fitness of -1.47 natural log.
With `A57M` the binding fitness was -1.45 natural log.
`E54K` gave a binding fitness of -1.5 natural log.
`S43V` gave a binding fitness of -1.45 natural log.
The binding fitness of `A49Q` is reported as -1.39 natural log.
`E44I` has a binding fitness of -0.889 natural log.
`R53K` gave a binding fitness of -1.54 natural log.
`E54P` gave a binding fitness of -1.5 natural log.

Single results of other studies
The fold induction of `PhoQ, residues 284 288 289 292 302 303 SQSLSM` is reported as 0.681 (PhoP, residues 12 14 15 18 19 STWGI (Escherichia coli, UniProt P23836); Sort-seq, refers to: YFP reporter; E. coli; PhoQ-PhoP variant library, together with: 10 µM Mg2+; relative to: high Mg2+ state, higher = stronger signaling).

A few entries again (set 5):
For `E32R`, the binding fitness was -1.34 natural log.
For `L45E`, the binding fitness was -1.59 natural log.
With `L31Q` the binding fitness was -1.52 natural log.
`V35P` gave a binding fitness of -1.36 natural log.
With `K36G` the binding fitness was -1.38 natural log.
For `A49G`, the binding fitness was -1.47 natural log.
`R30H` gave a binding fitness of -1.51 natural log.
`L38E` gave a binding fitness of -1.25 natural log.
`L31H` gave a binding fitness of -1.4 natural log.
`Q41A` gave a binding fitness of -1.21 natural log.
With `R53H` the binding fitness was -1.49 natural log.
The binding fitness of `L52W` is reported as -1.56 natural log.
`Q55N` has a binding fitness of -1.53 natural log.
